Values quoted from earlier work, collected from citations in different studies.
Lines come from different studies, so protocols differ. ± gives the spread as reported.
EGFR L858R/T790M: Epidermal growth factor receptor (EGFR, Homo sapiens, UniProt P00533, L858R/T790M)

SMILES	target or system	test	test system	setting	scale	measurement	value
CNc1c(C)n(C)n(-c2ccccc2)c1=O	primary human hepatocytes	item: CYP3A4	–	concentration not given	baseline: untreated	protein level	increased
CC(=O)O[C@H]1C2=C(C(=O)C(O)=C(C(C)C)C2=O)[C@@]2(C)CCCC(C)(C)[C@@H]2[C@@H]1OC(=O)c1ccc([N+](=O)[O-])cc1	HL-60	cell growth	–	–	–	GI50	≤ 5 µM
COCCCn1ccn2cc(C(=O)NCc3ccc(F)cc3F)c(=O)c(O)c2c1=O	HOS	ATP level, 50% ATP reduction	–	–	–	CC50	> 250 µM
O=S(=O)(c1ccc(-c2ccc3nccc(Nc4ccc(OCc5cccc(F)c5)cc4)c3c2)cc1)N1CCOCC1	HepG2	–	–	–	–	TC50	> 20 µM
C[C@@H](Nc1c(-c2c(F)cc(OCCCO)cc2F)c(Cl)nc2ncnn12)C(C)(C)C	HEK293	–	–	10 µM, 4 h, unit not given	baseline: vehicle (DMSO)	total α-tubulin level	1.06 ± 0.03
Cc1cc(N2CC[C@@](C#N)(C3CC3)C2=O)cc(NC(=O)Cc2ccccc2)n1	ARPE-19	cytotoxicity	–	–	–	CC50	0.672 µM
CC(=O)O[C@@H]1C[C@H]2C(C)(C)[C@H](O)CC[C@]2(C)[C@H]2CC[C@]34C[C@]3(CC[C@H]4[C@@H](C)C[C@@H](O)[C@H](O)C(C)(C)O)[C@@]21C	KB-C2 colchicine-resistant	–	–	concentration not given	–	cytotoxicity	toxic
COc1ccc(NC(=O)/C=C(C)/C=C/C=C(C)/C=C/C2=C(C)CCCC2(C)C)cc1	malignant cell lines	–	–	concentration not given	–	cytotoxicity	not toxic
O=C(NCc1ccc(F)cc1F)c1cn2ccn(CCCCO)c(=O)c2c(O)c1=O	HOS	ATP level, 50% ATP reduction	–	–	–	CC50	> 250 µM
CC(=O)O[C@H]1C2=C(C(=O)C(O)=C(C(C)C)C2=O)[C@@]2(C)CCCC(C)(C)[C@@H]2[C@@H]1O	HL-60	cell growth	–	–	–	GI50	10 to 30 µM
CCOC(=O)C(CC)NC(=O)CN1C(=O)S/C(=C\c2ccc(OC)cc2)C1=O (stereo not shown)	Caco-2	–	–	concentration not given	–	cytotoxicity	not toxic
CNCCCOc1cc(F)c(-c2c(Cl)nc3ncnn3c2NCC(F)(F)F)c(F)c1	HEK293	–	–	1 µM, 4 h, unit not given	baseline: vehicle (DMSO)	total α-tubulin level	0.69 ± 0.03
CC(=O)OC1=C(C(C)C)C(=O)C2=C(C1=O)[C@@]1(C)CCCC(C)(C)[C@@H]1[C@H](OC(C)=O)[C@H]2OC(C)=O	MCF7	cell growth	–	–	–	GI50	5 to 10 µM
O=C(NCc1ccc(F)cc1F)c1cn2ccn(CCCCCO)c(=O)c2c(O)c1=O	HOS	ATP level, 50% ATP reduction	–	–	–	CC50	> 250 µM
C=CC(=O)N1CCC[C@@H](n2nc(-c3cccc4ccccc34)c3c(N)ncnc32)C1	EGFR L858R/T790M	–	–	–	–	kinact/Ki	90000 ± 20000 M⁻¹ s⁻¹
CC(=O)O[C@H]1C2=C(C(=O)C(OC(=O)c3ccc(C)cc3)=C(C(C)C)C2=O)[C@@]2(C)CCCC(C)(C)[C@@H]2[C@@H]1O	MCF7	cell growth	–	–	–	GI50	≤ 5 µM
Cc1ccccc1-c1cc(N2CCNCC2)ncc1N(C)C(=O)C(C)(C)c1cc(C(F)(F)F)cc(C(F)(F)F)c1	–	–	healthy volunteers, plasma	oral, dose not given, netupitant-palonosetron, fed	–	half-life	82.9 h
CN1C(=O)[C@@H](Cc2ccc(O)cc2)NC(=O)CNC(=O)[C@H](Cc2ccc3ccccc3c2)NC(=O)[C@H](CCCNC(=N)N)NC(=O)[C@H]1CCCNC(=O)c1ccc(CNC(=O)CN2CCN(CC(=O)O)CCN(CC(=O)O)CCN(CC(=O)O)CC2)cc1 [gallium-68 labelled]	–	PET dosimetry	human patients, small intestine	–	–	absorbed dose coefficient	0.0123 mGy/MBq
CC(=O)O[C@H]1C2=C(C(=O)C(OC(=O)c3ccc([N+](=O)[O-])cc3)=C(C(C)C)C2=O)[C@@]2(C)CCCC(C)(C)[C@@H]2[C@@H]1O	MCF7	cell growth	–	–	–	GI50	10 to 30 µM
O=C1c2ccccc2-c2c1c1ccc([N+](=O)[O-])cc1c(=O)n2C[C@H](O)[C@@H](O)[C@H](O)[C@H](O)CO	SN12C	cell growth	–	renal cancer panel	–	GI50	17.7 µM

SMILES	target or system	test	test system	setting	scale	measurement	value
CC(C)N1CCn2cc(C(=O)NCc3ccc(F)cc3F)c(=O)c(O)c2C1=O	HOS	ATP level, 50% ATP reduction	–	–	–	CC50	163 ± 8 µM
Cc1cc(N2CC[C@](C#N)(C3(C)CC3)C2=O)cc(C(=O)NCc2cc(F)cc(-c3cnn(C)c3)c2)n1	ARPE-19, MDA-MB-231	–	–	up to 2 µM	–	growth inhibition	no inhibition
O=C(Nc1ccccc1-c1ccc(Cl)cc1)c1nccnc1C(F)(F)F	Puccinia triticina	–	wheat	–	–	EC80	2 to 10 mg a.i./L
CC(=O)O[C@@H]1[C@@H](OC(C)=O)C2=C(C(=O)C(O)=C(C(C)C)C2=O)[C@@]2(C)CCCC(C)(C)[C@H]12	MCF7	cell growth	–	–	–	GI50	10 to 30 µM
N=S(=O)(c1ccccc1)N1CCCCC1 (stereo not shown)	Caco-2	–	–	–	baseline: Papp B-A over Papp A-B	efflux ratio	0.59
O=C(OCc1cccc(O)c1O)c1ccc(O)c(CO)c1	cultured cells	–	–	concentration not given	–	cytotoxicity	not toxic
CCOC(=O)CNC(=O)CN1C(=O)S/C(=C\c2ccc(C)cc2)C1=O	Caco-2	–	–	concentration not given	–	cytotoxicity	not toxic
COc1cncc(-c2cc(F)cc(CNC(=O)c3cc(N4CC[C@@](C#N)(C5CC5)C4=O)cc(C)n3)c2)c1	ARPE-19	cytotoxicity	–	–	–	CC50	0.783 µM
COc1ccc(Oc2ccc([C@@H](C)N(C)c3ncc4c(N)nc(N)nc4n3)cc2)cc1	HEK293	–	–	concentration not given	–	activity	inactive
O=C(NCc1ccc(F)cc1F)c1cn2c(c(O)c1=O)C(=O)N(CCCCO)CC2	HOS	ATP level, 50% ATP reduction	–	–	–	CC50	> 250 µM
O=C(Cn1cc(CNC(=O)c2c3ccccc3nc3ccccc23)nn1)Nc1cccc(Br)c1	HDF	–	–	–	no toxicity up to value	cytotoxicity	> 200 µM
CN1CCN(c2cc(-c3ccccc3CO)c(N(C)C(=O)C(C)(C)c3cc(C(F)(F)F)cc(C(F)(F)F)c3)cn2)CC1	–	–	healthy volunteers, plasma	oral, 450 mg, single dose, with: palonosetron 0.75 mg	–	half-life	78.8 h
C=CC(=O)N1CCC[C@@H](n2nc(-c3ccc4ccccc4c3)c3c(N)ncnc32)C1	EGFR L858R/T790M	–	–	–	–	kinact/Ki	3.42e+06 ± 1.44e+06 M⁻¹ s⁻¹
COCCOCCOCCOCCC(=O)NCc1cc(CNC(=O)CCOCCOCCOCCOC)cc(-c2cc3cc4nc(c(OC)c5[nH]c(cc6nc(cc2[nH]3)CC6(C)C)cc5-c2cc(CNC(=O)CCOCCOCCOCCOC)cc(CNC(=O)CCOCCOCCOCCOC)c2)CC4(C)C)c1	–	–	PBS	room temperature	–	singlet excited-state lifetime	2.7 ns
CC(C)C1=C(O)C(=O)C2=C(C1=O)[C@H](O)[C@@H](O)[C@H]1C(C)(C)CCC[C@]21C	MCR5	cell growth	–	–	–	GI50	10 to 30 µM
O=C(NCc1ccc(F)cc1F)c1cn2c(c(O)c1=O)C(=O)N(CCCCCO)CC2	HOS	ATP level, 50% ATP reduction	–	–	–	CC50	150 ± 3.9 µM
O=C(Nc1ccccc1-c1cccc(F)c1)c1nccnc1C(F)(F)F	Puccinia triticina	–	wheat	–	–	EC80	2 to 10 mg a.i./L
O=C1c2ccccc2-c2c1c1ccc([N+](=O)[O-])cc1c(=O)n2C[C@H](O)CO	UACC-62	cell growth	–	melanoma cancer panel	–	GI50	0.098 µM
CC(=O)O[C@H]1C2=C(C(=O)C(OC(=O)c3ccc(Cl)cc3)=C(C(C)C)C2=O)[C@@]2(C)CCCC(C)(C)[C@@H]2[C@@H]1O	MCF7	cell growth	–	–	–	GI50	≤ 5 µM
CCCCCCCCC1=C(CCCCCCCC(=O)O)C1	differentiated adipocytes	–	–	100 or 200 µM	–	viability	decreased

For quick reference, copied from above:
SMILES	target or system	test	test system	setting	scale	measurement	value
O=C(NCc1ccc(F)cc1F)c1cn2c(c(O)c1=O)C(=O)N(CCCCCO)CC2	HOS	ATP level, 50% ATP reduction	–	–	–	CC50	150 ± 3.9 µM
O=C(Nc1ccccc1-c1cccc(F)c1)c1nccnc1C(F)(F)F	Puccinia triticina	–	wheat	–	–	EC80	2 to 10 mg a.i./L
O=C1c2ccccc2-c2c1c1ccc([N+](=O)[O-])cc1c(=O)n2C[C@H](O)CO	UACC-62	cell growth	–	melanoma cancer panel	–	GI50	0.098 µM
CC(=O)O[C@H]1C2=C(C(=O)C(OC(=O)c3ccc(Cl)cc3)=C(C(C)C)C2=O)[C@@]2(C)CCCC(C)(C)[C@@H]2[C@@H]1O	MCF7	cell growth	–	–	–	GI50	≤ 5 µM
CCCCCCCCC1=C(CCCCCCCC(=O)O)C1	differentiated adipocytes	–	–	100 or 200 µM	–	viability	decreased
